Assay results gathered from unrelated publications.
Protocols differ between the studies behind these lines. Values joined by “and” are separate records of one study, mostly repeats; a detail may differ.
ABL1 Q252H: Tyrosine-protein kinase ABL1 (ABL1, Homo sapiens, UniProt P00519, Q252H)
ABL1 T315I: Tyrosine-protein kinase ABL1 (ABL1, Homo sapiens, UniProt P00519, T315I)
ABL1 E255K: Tyrosine-protein kinase ABL1 (ABL1, Homo sapiens, UniProt P00519, E255K)

With `Cc1cnn2ncc(-c3ccnc(N(C)C)n3)c2c1` the remaining binding was 80% (ABL1 Q252H; KINOMEscan; 1 µM).
For `O=C(NC1CCC1)c1ccc2nc(-c3cccc(NS(=O)(=O)NCCN4CCCCC4)c3)cn2c1`, the remaining activity was 86% (ABL1 (Homo sapiens, UniProt P00519, Y253F); enzyme activity; 10 µM).
`CN1CCN(c2ccc(Nc3nccc(-c4cccc([N+](=O)[O-])c4)n3)cc2C(F)(F)F)CC1` — result for “percent of control”: 100% and 55% (ABL1 (Homo sapiens, UniProt P00519, F317I); 10 µM).
`[2H]c1cc(C)c(NC(=O)c2cnc(Nc3cc(N4CCC(O)CC4)nc(C)n3)s2)c(Cl)c1` gave an inhibition of < 50% (ABL1 T315I; 0.001 µM).
Under “percent of control”, `CN1CCN(c2ccc(Nc3nccc(-c4ccccc4)n3)cc2C(F)(F)F)CC1` is recorded as 64% (ABL1 (Homo sapiens, UniProt P00519, F317L); 10 µM).
`Cc1nc(Nc2ncc(C(=O)Nc3c(C)cccc3Cl)s2)cc(N2CC[C@H](O)C2)n1` has an inhibition of 68% (ABL1 E255K; 0.001 µM).
The remaining binding of `CN(C)c1ncc(F)c(-c2cnn3ncccc23)n1` is reported as 100% and 66% (ABL1 Q252H; KINOMEscan; 1 µM; relative to: control).
`C=CC(=O)N1CCC(COCC(=O)N2CCN(c3nc(-c4cnc(N)nc4C(F)F)nc(N4CCOC[C@@H]4C)n3)CC2)CC1` has a remaining binding of 76% (Tyrosine-protein kinase ABL1, phosphorylated (ABL1, Homo sapiens, UniProt P00519, F317L); KINOMEscan; 1 µM).
For `N[C@@H]1CCN(c2nccc(-c3cnn4ncccc34)n2)C1`, the remaining binding was 96% (ABL1 T315I; KINOMEscan; 1 µM).
The remaining binding of `C1=C/COCc2cc(ccc2OCCN2CCCC2)Nc2nccc(n2)-c2cccc(c2)COC/1` is reported as 21% (ABL1 T315I; 0.1 µM; relative to: DMSO control).
With `[2H]c1cc(C)c(NC(=O)c2cnc(Nc3cc(N4CCCCC4)nc(C)n3)s2)c(Cl)c1` the inhibition was > 90% (ABL1 E255K; 0.01 µM).
